Earlier results as cited in several papers.
Each line is one published result; not all experiments were run side by side. ± marks the error that the study gave.
Genome polyprotein NS2B-NS3 protease: Genome polyprotein, NS2B-NS3 protease (dengue virus type 2, UniProt P29990)
UGT1A1: UDP-glucuronosyltransferase 1A1 (UGT1A1, Homo sapiens, UniProt P22309)
UniProt P22309, sequence (whole entry, looked up): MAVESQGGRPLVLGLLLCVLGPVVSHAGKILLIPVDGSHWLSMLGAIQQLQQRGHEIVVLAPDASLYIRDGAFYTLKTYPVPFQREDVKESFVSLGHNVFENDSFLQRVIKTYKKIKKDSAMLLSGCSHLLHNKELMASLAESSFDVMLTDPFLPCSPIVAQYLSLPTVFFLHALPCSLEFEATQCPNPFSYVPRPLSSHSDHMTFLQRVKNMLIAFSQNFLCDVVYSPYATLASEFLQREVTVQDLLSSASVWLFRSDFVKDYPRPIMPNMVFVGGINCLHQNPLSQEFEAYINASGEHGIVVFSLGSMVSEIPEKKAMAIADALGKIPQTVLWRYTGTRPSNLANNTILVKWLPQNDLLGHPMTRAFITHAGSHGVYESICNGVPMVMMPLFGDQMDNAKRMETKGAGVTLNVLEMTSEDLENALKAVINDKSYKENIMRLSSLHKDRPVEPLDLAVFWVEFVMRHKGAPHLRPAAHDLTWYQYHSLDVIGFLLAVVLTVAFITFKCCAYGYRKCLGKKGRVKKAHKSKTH
UniProt Q9Y5N1, sequence (whole entry, looked up): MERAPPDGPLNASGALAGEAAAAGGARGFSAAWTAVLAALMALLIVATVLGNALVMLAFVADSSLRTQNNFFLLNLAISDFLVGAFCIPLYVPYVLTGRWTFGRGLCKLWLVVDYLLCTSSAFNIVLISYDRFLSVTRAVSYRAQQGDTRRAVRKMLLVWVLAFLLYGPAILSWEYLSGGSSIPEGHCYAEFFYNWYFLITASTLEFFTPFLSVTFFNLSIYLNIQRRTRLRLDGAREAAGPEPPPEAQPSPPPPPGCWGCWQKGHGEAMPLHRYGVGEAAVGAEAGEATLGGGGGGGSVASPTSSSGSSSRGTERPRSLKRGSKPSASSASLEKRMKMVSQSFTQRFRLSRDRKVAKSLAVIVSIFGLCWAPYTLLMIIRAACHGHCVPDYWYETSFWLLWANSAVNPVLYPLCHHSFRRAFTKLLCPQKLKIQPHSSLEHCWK
UniProt Q13177, sequence (whole entry, looked up): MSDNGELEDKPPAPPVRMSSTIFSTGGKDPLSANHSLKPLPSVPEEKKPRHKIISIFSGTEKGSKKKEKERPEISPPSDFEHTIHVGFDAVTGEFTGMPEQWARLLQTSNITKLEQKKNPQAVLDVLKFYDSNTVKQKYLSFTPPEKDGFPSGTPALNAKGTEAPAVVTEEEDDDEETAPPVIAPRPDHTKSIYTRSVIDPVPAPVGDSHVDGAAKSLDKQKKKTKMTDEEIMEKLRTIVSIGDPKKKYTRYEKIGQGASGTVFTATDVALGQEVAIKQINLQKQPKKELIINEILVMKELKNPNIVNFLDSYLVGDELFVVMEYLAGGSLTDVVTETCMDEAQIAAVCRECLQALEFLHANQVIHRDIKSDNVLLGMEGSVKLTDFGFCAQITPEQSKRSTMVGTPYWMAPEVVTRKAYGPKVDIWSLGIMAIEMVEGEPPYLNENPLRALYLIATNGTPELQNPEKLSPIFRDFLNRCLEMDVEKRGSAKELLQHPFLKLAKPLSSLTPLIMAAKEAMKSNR
UniProt Q9NTG7, sequence (whole entry, looked up): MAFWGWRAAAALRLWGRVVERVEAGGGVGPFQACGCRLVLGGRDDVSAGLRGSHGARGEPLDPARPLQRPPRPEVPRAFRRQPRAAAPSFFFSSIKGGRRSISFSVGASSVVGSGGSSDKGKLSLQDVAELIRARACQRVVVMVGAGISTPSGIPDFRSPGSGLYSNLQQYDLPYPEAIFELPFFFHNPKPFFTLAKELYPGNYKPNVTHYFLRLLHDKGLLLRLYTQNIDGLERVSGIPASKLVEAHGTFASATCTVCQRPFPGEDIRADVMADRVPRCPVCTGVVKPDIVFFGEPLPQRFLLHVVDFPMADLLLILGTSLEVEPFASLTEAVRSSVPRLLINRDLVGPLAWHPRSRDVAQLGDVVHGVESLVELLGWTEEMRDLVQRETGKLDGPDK
UniProt P40337, sequence (whole entry, unmodified, looked up): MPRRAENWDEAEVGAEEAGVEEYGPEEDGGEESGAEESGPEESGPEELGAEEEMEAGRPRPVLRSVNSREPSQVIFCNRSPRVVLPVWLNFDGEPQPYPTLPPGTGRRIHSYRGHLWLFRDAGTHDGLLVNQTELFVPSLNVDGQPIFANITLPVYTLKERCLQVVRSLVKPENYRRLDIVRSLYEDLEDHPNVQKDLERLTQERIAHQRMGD
UniProt P37288, sequence (whole entry, looked up): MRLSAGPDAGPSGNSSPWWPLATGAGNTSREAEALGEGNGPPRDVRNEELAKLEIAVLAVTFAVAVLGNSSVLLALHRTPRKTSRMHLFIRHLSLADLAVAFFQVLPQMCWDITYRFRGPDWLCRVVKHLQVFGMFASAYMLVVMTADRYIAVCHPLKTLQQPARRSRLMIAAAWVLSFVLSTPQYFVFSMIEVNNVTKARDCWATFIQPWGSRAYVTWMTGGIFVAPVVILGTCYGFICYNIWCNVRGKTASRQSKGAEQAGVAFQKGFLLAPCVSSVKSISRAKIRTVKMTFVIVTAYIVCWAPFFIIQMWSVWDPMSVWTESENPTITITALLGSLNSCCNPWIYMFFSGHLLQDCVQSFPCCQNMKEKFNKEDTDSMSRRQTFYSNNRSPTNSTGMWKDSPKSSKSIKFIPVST
UniProt P48066, sequence (whole entry, looked up): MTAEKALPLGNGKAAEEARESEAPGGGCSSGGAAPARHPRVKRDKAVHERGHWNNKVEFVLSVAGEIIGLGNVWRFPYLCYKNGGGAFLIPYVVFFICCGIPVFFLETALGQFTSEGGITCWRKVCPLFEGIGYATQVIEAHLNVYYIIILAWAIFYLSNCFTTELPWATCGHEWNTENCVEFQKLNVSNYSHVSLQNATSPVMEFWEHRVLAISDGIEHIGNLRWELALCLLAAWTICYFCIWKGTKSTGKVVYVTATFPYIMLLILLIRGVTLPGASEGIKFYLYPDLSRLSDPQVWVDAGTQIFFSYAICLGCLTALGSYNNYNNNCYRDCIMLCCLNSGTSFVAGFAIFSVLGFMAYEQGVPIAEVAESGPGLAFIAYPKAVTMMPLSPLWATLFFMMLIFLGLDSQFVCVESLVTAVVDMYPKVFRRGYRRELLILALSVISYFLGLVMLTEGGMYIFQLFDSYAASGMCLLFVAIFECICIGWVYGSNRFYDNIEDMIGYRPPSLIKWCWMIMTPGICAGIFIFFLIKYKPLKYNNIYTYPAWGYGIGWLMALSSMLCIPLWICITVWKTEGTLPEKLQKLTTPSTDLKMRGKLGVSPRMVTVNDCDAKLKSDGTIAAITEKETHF
UniProt Q9GT49, sequence (whole entry, looked up): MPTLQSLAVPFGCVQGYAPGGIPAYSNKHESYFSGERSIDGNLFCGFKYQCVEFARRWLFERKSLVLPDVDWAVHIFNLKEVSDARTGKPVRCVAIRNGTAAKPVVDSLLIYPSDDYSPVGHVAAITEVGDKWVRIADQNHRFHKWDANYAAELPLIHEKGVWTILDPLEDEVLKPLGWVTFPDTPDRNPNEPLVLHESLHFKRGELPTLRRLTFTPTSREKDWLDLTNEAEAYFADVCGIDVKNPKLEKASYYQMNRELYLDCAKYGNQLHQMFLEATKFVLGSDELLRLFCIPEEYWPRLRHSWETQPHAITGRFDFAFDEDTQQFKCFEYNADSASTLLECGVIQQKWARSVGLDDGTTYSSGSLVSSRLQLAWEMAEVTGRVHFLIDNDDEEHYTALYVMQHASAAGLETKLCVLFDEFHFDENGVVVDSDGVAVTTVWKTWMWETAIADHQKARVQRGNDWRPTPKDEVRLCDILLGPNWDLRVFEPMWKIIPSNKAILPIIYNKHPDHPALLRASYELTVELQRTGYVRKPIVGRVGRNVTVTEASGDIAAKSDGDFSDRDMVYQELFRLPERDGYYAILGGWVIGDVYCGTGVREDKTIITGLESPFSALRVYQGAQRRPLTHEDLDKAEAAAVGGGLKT
UniProt O60331, sequence (whole entry, looked up): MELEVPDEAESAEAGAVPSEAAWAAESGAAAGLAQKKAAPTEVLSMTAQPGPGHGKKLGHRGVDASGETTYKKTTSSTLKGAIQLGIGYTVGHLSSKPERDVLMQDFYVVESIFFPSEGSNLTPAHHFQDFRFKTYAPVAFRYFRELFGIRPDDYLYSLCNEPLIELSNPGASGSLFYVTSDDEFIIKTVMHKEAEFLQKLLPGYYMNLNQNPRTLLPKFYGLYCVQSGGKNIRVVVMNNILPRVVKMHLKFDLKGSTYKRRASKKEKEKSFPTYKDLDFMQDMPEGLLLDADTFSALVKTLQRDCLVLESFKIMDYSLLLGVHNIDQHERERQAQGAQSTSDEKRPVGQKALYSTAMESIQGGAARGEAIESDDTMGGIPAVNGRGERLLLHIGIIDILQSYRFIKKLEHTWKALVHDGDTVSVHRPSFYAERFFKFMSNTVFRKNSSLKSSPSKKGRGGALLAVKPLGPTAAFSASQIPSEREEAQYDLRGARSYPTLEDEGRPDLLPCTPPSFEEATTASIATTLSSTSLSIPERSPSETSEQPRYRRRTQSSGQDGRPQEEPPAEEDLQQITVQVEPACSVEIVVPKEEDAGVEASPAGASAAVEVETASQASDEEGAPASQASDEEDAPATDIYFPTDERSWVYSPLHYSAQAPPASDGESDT

| SMILES | tested on | assay | system | setting | how to read | measurement | result |
| --- | --- | --- | --- | --- | --- | --- | --- |
| Cc1onc(-c2ccc(F)cc2)c1C(=O)N[C@H](C(=O)Nc1cccc(C(N)=O)c1)c1ccc(OCc2ccccc2)cc1 | Genome polyprotein NS2B-NS3 protease | DENV-2 protease cell reporter | HeLa | 12.5 µM | – | inhibition | 63% |
| Cc1ncsc1-c1ccc2c(c1)OCCOCCOC[C@@H](NC(=O)C[C@@H]1N=C(c3ccc(Cl)cc3)c3c(sc(C)c3C)-n3c(C)nnc31)COCCOCCOCC(=O)N[C@@H](C(C)(C)C)C(=O)N1C[C@H](O)C[C@H]1C(=O)NC2 | Bromodomain-containing protein 4, BD2 (BRD4, Homo sapiens, UniProt O60885) | isothermal titration calorimetry | – | BRD4 titrated into compound | – | ΔH | -6.25 kcal/mol |
| COc1cc(-c2cc(=O)c3ccc(OCCCn4c(Cl)nc5ccccc54)cc3o2)cc(OC)c1OC | HK-II, PFKP and PDK-1 | glycolytic enzyme level | MGC-803 | concentration not given | – | inhibition | inhibited |
| Cc1nc(-c2ccncc2)sc1C(=O)NC(C(=O)Nc1cccc(C(N)=O)c1)c1ccc(OCc2ccccc2)cc1 (centres unmarked) | Genome polyprotein NS2B-NS3 protease | DENV-2 protease cell reporter | HeLa | 12.5 µM | – | inhibition | 78% |
| CNC(=S)NCCCC[C@H](NC(=O)OCc1ccccc1)C(=O)N[C@@H](Cc1c[nH]c2ccccc12)C(=O)NC(C)C | NAD-dependent protein deacetylase sirtuin-3, mitochondrial (SIRT3, Homo sapiens, UniProt Q9NTG7) | enzyme activity, inhibitor | – | 10 µM | – | inhibition | 12% |
| O=C(O)C1OC(Oc2cc(O)c3c(=O)c(O)c(-c4ccccc4)oc3c2)C(O)C(O)C1O (centres unmarked) | UGT1A1 | glucuronidation, substrate | Supersomes | – | – | Vmax | 4.59 ± 0.46 nmol/mg/min |
| O=P(O)(O)O[C@@H]1[C@H](O)[C@H](O)[C@@H](OP(=O)(O)O)[C@H](OP(=O)(O)O)[C@H]1O | INPP5B | enzyme activity, malachite green | – | – | – | Km | 55 ± 22 µM |
| Oc1c(Cc2c[nH]c3ccccc23)cc(Cl)c2cccnc12 | COLO 320 ABCB1-overexpressing | cell viability | – | – | – | IC50 | 4.87 µM |
| Cc1ncsc1-c1ccc(CNC(=O)[C@@H]2C[C@@H](O)CN2C(=O)[C@@H](NC(=O)COCCOCCOCCNC(=O)C[C@@H]2N=C(c3ccc(Cl)cc3)c3c(sc(C)c3C)-n3c(C)nnc32)C(C)(C)C)cc1 | von Hippel-Lindau disease tumor suppressor, with Elongin B/C (VHL, Homo sapiens, UniProt P40337) | isothermal titration calorimetry | – | VCB titrated into compound | – | ΔH | -7.7 kcal/mol |
| O=C(O)C1OC(Oc2c(-c3ccc(O)cc3)oc3cc(O)ccc3c2=O)C(O)C(O)C1O (centres unmarked) | UGT1A1 | glucuronidation, substrate | Supersomes | – | – | Vmax | 0.68 ± 0.05 nmol/mg/min |
| COc1ccc(Nc2nc(Nc3ccc(OCC[18F])cc3)ncc2Br)cc1 | – | – | S180 tumour-bearing mice | intravenous, 15 min | relative to: tumour over blood | tumour to tissue ratio | 0.78 |
| CNCCNC(=O)CN1C(=O)Cc2c([nH]c3ccc(Br)cc23)-c2ccc(Cl)cc21 | Trypanothione synthetase (Trypanosoma cruzi, UniProt Q9GT49) | enzyme activity | – | 30 µM | – | inhibition | 40.5 ± 5.9% |
| O=C(O)[C@@H](O)[C@@H]1CCCN1 | Sodium- and chloride-dependent GABA transporter 3 (SLC6A11, Homo sapiens, UniProt P48066) | inhibitor | – | concentration not given | – | transporter inhibition | inhibited |
| CS(=O)(=O)Nc1ccc(-c2cncc(-c3cccc4cc[nH]c34)c2)cc1 | Phosphatidylinositol 4-phosphate 5-kinase type-1 gamma (PIP5K1C, Homo sapiens, UniProt O60331) | inhibitor | – | 1 µM | relative to: control | remaining activity | < 30% |
| CC1CCN(C(=O)c2cccc(NC(=O)Nc3ccc(Cl)cc3)c2)CC1 | Penicillin-binding protein 4 (Staphylococcus aureus, UniProt P72355) | Bocillin-FL binding | – | 50 µM | – | inhibition | 69.2 ± 14.6% |
| O=C(O)C1OC(Oc2c(-c3ccccc3)oc3cc(O)ccc3c2=O)C(O)C(O)C1O (centres unmarked) | UGT1A1 | glucuronidation, substrate | Supersomes | – | – | Vmax | 1.02 ± 0.34 nmol/mg/min |
| O=c1ccc(OCCCN2CCCCC2)nn1-c1ccc(Cl)c(Cl)c1 | Histamine H3 receptor (HRH3, Homo sapiens, UniProt Q9Y5N1) | – | – | 1.0 µM | – | inhibition | 35.6 ± 3.2% |
| CCCCCCCCCC(=O)NC1CCCC1 | Pseudomonas aeruginosa | elastase production | PAO1 | 250 µM | – | inhibition | 75% |
| Cc1cc(O)c2c(c1O)C(=O)c1cc(O)cc(O)c1C2=O | Vasopressin V1a receptor (AVPR1A, Homo sapiens, UniProt P37288) | antagonist | – | 50 µM | – | inhibition | 59.2 ± 0.1% |
| Oc1c(C(c2ccccc2)c2c[nH]c3ccccc23)cc(Cl)c2cccnc12 (centres unmarked) | COLO 205 | cell viability | – | – | – | IC50 | 2.53 µM |
| O=C(O)C1OC(Oc2ccc(-c3oc4ccc(O)cc4c(=O)c3O)cc2)C(O)C(O)C1O (centres unmarked) | UGT1A1 | glucuronidation, substrate | Supersomes | – | – | Vmax | 0.34 ± 0.03 nmol/mg/min |
| Cc1cc(-c2cc(Cl)ccc2OCCn2c(C)nc3cc(C(F)(F)F)cc(C#N)c3c2=O)c2scc(C(=O)NS(C)(=O)=O)c2n1 | eIF4E cap-binding site | fluorescence polarization | – | – | – | activity | 30 nM |
| O=C(O)CN(CC(=O)O)[C@H]1CCCC[C@@H]1N(CC(=O)O)Cc1ccccn1 | protonation constant | – | – | 0.15 M NaCl | – | log KH2 | 6.39 |
| CC(C)c1ccccc1-c1nc(NCc2ccccn2)c2c(ccn2C)n1 | Serine/threonine-protein kinase PAK 2 (PAK2, Homo sapiens, UniProt Q13177) | inhibitor | – | 10 µM | – | remaining activity | < 50% |
| O=C(O)C1OC(Oc2c(-c3ccccc3)oc3ccccc3c2=O)C(O)C(O)C1O (centres unmarked) | UGT1A1 | glucuronidation, substrate | Supersomes | – | – | Vmax | 1.74 ± 0.03 nmol/mg/min |
| Cc1sc(-c2ccc(C(F)(F)F)cc2)nc1-c1nn[nH]c1C#N | – | – | ZDF rat | 2 mg/kg/day, 6 weeks | – | HbA1c at end of treatment | 9.29 ± 0.13% |

A few entries again:
| SMILES | tested on | assay | system | setting | how to read | measurement | result |
| --- | --- | --- | --- | --- | --- | --- | --- |
| CC(C)c1ccccc1-c1nc(NCc2ccccn2)c2c(ccn2C)n1 | Serine/threonine-protein kinase PAK 2 (PAK2, Homo sapiens, UniProt Q13177) | inhibitor | – | 10 µM | – | remaining activity | < 50% |
